Published values collected from several papers.
Numbered parts are unrelated; each lists some results of a single study. Positions count from the first letter of the parent shown.
Chain of UniProt Q96L34 (whole entry, looked up): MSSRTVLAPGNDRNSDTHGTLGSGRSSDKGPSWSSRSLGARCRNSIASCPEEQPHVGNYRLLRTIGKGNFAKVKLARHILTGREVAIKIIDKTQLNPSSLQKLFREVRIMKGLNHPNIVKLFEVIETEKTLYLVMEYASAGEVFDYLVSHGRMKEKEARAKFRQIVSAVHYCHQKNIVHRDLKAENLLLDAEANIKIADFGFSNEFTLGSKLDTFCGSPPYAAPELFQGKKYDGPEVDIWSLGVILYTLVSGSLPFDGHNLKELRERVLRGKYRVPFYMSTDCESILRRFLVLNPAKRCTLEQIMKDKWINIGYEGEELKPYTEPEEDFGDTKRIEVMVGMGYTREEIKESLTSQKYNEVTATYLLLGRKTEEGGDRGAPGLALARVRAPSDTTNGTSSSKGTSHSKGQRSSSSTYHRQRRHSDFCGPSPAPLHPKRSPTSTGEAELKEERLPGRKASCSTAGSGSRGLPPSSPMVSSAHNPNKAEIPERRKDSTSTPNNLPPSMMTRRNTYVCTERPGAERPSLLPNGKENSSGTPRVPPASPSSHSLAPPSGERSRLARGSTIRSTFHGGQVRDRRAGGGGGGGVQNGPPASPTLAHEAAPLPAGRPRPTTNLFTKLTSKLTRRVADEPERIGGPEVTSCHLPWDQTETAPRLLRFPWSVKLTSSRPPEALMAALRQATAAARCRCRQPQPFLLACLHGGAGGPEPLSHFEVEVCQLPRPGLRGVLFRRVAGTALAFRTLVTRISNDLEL
Chain of UniProt P51451 (whole entry, looked up): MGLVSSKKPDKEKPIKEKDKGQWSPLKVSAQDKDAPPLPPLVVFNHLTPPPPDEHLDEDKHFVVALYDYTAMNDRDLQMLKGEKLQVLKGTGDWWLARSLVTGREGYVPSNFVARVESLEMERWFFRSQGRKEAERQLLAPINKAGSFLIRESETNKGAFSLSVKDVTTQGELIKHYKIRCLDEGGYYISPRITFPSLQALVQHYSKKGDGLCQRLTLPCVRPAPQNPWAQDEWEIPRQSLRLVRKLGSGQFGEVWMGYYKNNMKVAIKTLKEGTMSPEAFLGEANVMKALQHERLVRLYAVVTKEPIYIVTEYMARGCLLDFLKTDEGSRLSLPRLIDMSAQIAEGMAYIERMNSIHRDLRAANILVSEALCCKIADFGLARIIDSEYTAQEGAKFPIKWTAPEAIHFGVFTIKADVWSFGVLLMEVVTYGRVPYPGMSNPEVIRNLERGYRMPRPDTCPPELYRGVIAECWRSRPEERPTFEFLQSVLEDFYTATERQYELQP
Chain of UniProt Q13153 (whole entry, looked up): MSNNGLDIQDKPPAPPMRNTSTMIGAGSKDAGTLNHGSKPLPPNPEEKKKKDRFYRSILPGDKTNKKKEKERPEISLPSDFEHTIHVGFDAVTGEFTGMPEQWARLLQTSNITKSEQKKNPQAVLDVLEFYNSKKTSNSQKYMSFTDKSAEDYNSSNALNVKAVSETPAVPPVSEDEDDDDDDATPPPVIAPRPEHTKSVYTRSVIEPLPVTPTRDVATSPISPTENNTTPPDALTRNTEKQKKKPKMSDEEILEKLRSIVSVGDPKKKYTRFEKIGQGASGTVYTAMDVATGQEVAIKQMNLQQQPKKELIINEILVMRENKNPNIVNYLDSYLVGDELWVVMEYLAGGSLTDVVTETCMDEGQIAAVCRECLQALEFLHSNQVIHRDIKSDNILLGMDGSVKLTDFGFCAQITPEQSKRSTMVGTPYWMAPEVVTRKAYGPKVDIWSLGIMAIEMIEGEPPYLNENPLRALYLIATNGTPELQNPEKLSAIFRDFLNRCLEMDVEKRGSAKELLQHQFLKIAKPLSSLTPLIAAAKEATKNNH
Chain of UniProt Q13237 (whole entry, looked up): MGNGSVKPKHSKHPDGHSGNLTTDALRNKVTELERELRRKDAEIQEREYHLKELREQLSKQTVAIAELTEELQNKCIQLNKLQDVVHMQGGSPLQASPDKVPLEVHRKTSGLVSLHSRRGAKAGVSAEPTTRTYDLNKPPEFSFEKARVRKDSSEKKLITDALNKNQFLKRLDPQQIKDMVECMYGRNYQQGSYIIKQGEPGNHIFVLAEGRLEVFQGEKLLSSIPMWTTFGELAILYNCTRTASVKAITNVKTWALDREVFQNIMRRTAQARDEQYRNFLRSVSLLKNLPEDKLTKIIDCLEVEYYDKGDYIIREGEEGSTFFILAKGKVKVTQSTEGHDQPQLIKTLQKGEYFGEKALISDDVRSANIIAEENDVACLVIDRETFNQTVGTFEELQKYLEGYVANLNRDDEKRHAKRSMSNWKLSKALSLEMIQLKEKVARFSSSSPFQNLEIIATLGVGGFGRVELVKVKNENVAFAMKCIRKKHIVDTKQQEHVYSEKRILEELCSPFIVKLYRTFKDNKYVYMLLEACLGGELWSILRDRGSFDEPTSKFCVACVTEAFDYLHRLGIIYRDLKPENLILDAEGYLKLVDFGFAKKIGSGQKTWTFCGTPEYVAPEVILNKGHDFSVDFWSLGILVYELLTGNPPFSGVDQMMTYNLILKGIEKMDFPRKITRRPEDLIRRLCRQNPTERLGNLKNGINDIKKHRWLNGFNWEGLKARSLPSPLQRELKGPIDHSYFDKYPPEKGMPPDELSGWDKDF

Study 1 — read-out: cell-free assay; technique: competition with immobilised ligand; tested at: 1 µM; endpoint: remaining binding
SMILES: O=C(NC[C@@H]1[C@H]2CN(C(=O)OCc3cc(C(F)(F)F)cc(C(F)(F)F)c3)C[C@@H]12)c1ccc2[nH]nnc2c1
Receptor-type tyrosine-protein kinase FLT3 (FLT3, Homo sapiens, UniProt P36888, ITD): 83%
Tyrosine-protein kinase Blk (BLK, Homo sapiens, UniProt P51451): 100%
Serine/threonine-protein kinase PAK 1 (PAK1, Homo sapiens, UniProt Q13153): 100%

Study 2 — Structure (SMILES): O=C1c2ccccc2-c2n[nH]c3cccc1c23; read-out: enzyme activity; mode: inhibitor; tested at: 0.5 µM; reference: control; endpoint: remaining activity
MAP/microtubule affinity-regulating kinase 4 (MARK4, Homo sapiens, UniProt Q96L34): 54%
cGMP-dependent protein kinase 2 (PRKG2, Homo sapiens, UniProt Q13237): 93%
Mitogen-activated protein kinase 1 (MAPK1, Homo sapiens, UniProt P28482): 95.8%

Study 3 — technique: DHFR PCA, dose-response; matrix: yeast; notes: Hill fit, not affinity; together with: (+)-ABA, dose series; direction: lower = more sensitive; endpoint: ABA EC50
Target: ABI1, truncated, D143A, DHFR fusion (Arabidopsis thaliana, UniProt P49597)
Starting sequence: PYL1, truncated, DHFR fusion (Arabidopsis thaliana, UniProt Q8VZS8); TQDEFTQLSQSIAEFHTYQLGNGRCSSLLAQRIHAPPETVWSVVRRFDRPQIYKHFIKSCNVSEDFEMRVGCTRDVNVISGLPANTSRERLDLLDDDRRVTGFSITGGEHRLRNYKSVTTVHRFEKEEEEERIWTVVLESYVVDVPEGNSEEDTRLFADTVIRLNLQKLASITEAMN
R132D: 0.361 µM
E131H: 2.82 µM
T119N: 2390 µM
G108D: 1220 µM
V78L: 10.8 µM
Q2M: 6.5 µM
C60F: 2340 µM
M68L: 1.17 µM

Study 4 — technique: protein-binding microarray; molecule type: double-stranded DNA, one strand shown; matrix: in vitro; tested at: 0.8 µM; notes: whole 60-bp probe, no competitor; direction: higher = stronger binding; endpoint: fluorescence intensity; constant ends, left off below: … GTCTTGATTCGCTTGACGCTGCTG
Target: Centromere-binding protein 1, full length, N-terminal tag (CBF1, Saccharomyces cerevisiae, UniProt P17106, residues 1-351)
Chain of UniProt P17106 (whole entry, looked up): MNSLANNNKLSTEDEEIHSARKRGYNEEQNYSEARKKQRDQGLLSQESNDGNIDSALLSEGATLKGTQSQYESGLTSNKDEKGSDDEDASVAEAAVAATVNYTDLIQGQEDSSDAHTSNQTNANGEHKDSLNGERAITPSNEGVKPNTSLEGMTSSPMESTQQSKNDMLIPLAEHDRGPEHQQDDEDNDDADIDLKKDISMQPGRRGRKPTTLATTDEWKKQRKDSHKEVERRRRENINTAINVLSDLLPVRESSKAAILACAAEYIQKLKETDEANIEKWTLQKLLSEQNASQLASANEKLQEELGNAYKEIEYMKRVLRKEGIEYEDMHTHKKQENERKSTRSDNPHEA
TGTACGAAGCTATGTCACATCGTTATAGTAGTTAGG: 561 a.u.
GAATGTAGATCACAATTGGTCACAAAGAACAATTAG: 547 a.u.
CTAGAGGAATTTCGTAACGTGTATAGAATCAAATTC: 624 a.u.
CTAGAATAGTCATCAGGTGTAATGGAAGCTAATTTC: 725 a.u.
GAAAAAATAAAGAACTTCGTGCAGTACTTATACTAG: 500 a.u.
CTAAATACACAGGGGCACGCCAATGTTCAACTGTTC: 486 a.u.
GAAGTGACGCTGTTTCATGAGACTTTAGCCCTTTAG: 495 a.u.
CCTAACTACTATATGAACGTGATATAGCTTCGTACA: 1050 a.u.

For quick reference, copied from above (study 4):
GAATGTAGATCACAATTGGTCACAAAGAACAATTAG: 547 a.u.
CTAGAGGAATTTCGTAACGTGTATAGAATCAAATTC: 624 a.u.
CTAGAATAGTCATCAGGTGTAATGGAAGCTAATTTC: 725 a.u.
GAAAAAATAAAGAACTTCGTGCAGTACTTATACTAG: 500 a.u.
